Published values collected from several papers.
Protocols differ between the studies behind these lines. “And” joins repeats or separate records; there may be more than shown.
rep main protease: Replicase polyprotein 1ab, main protease (rep, Severe acute respiratory syndrome coronavirus 2, UniProt P0DTD1)

Nc1ncnc2c([C@@H]3N[C@H](CO)[C@@H](O)[C@H]3O)c[nH]c12
inhibition (Marburg virus; viral replication; HeLa, Musoke; 12.5 µM): 90%

CO[C@@H]1[C@H](N(C)C(=O)c2ccccc2)C[C@H]2O[C@]1(C)n1c3ccccc3c3c4c(c5c6ccccc6n2c5c31)C(=O)NC4
viral replication inhibition (SARS-CoV-2; concentration not given, Paris laboratory): inactive

CC(C)=CCc1c(O)ccc(C(=O)/C=C/c2ccc(O)cc2)c1O
CPE inhibition (SARS-CoV-2; viral replication; Vero E6; 6.25 µM): 0%

CC(C)(C)NC(=O)N[C@H](C(=O)N1C[C@H]2[C@@H]([C@H]1C(=O)NC(CC1CCC1)C(=O)C(N)=O)C2(C)C)C(C)(C)C (some centres unmarked)
CC50 (Vero E6; 48 h): > 200 µM

Fc1ccc([C@@H]2CCNC[C@H]2COc2ccc3c(c2)OCO3)cc1
EC50 (SARS-CoV-2; viral replication, high-content imaging screen; cell-based): > 100 µM

Nc1ncnc2c1ncn2[C@@H]1O[C@H](CO)C[C@H]1O
replicon activity (SARS-CoV-2; HiBiT luminescence; HeLa replicon; concentration not given, unit not given; reference: DMSO): 0.569 and 0.461 and 0.77 and 0.819 and 0.5 and 0.593

COc1cccc(-c2ccccc2NC(=O)C2CCN(Cc3ccccc3F)CC2)c1
efficacy (SARS-CoV-2; cytopathic effect; USA_WA1/2020; retest, 8-point, duplicates): 55.8%

Cc1nn(-c2ccc(Cl)cc2)c2c1C(c1ccc(Br)cc1)C(C#N)=C(N)O2 (centres unmarked)
Ct value (SARS-CoV-2; RT-qPCR, item: viral RNA; Vero; 10 µM; higher means less virus): 24.2 cycles

CC[C@H]1C[N@@]2CC[C@H]1C[C@H]2[C@H](O)c1ccnc2ccc(OCCC(C)C)cc12
EC50 (SARS-CoV-2; viral replication, high-content imaging screen; cell-based): > 100 µM

CC(C)CCCCCCCCC[C@@H]1CC(=O)N[C@@H](CCC(=O)O)C(=O)N[C@@H](CC(C)C)C(=O)N[C@H](CC(C)C)C(=O)N[C@@H](C(C)C)C(=O)N[C@@H](CC(=O)O)C(=O)N[C@H](CC(C)C)C(=O)N[C@@H](CC(C)C)C(=O)O1
selectivity index (SARS-CoV-2; Vero; reference: CC50 over IC50): 1

CCNC(=O)c1cc2c(-c3cc(C(C)(C)O)ccc3Oc3c(C)cc(F)cc3C)cn(C)c(=O)c2[nH]1
viral replication inhibition (SARS-CoV-2; Vero E6; concentration not given, NYC laboratory): inactive

Cc1nn(-c2ccc(Cl)cc2)c2c1C(c1ccc(Cl)cc1)C(C#N)=C(N)O2 (centres unmarked)
viral titre log reduction (SARS-CoV-2; Vero C1008; 10 µM; reference: positive control): 0.512 log10

Cc1ncccc1-c1nc2cc(C(=O)NCCCc3ccccc3)ccc2o1
maximum response (SARS-CoV-2; cytopathic effect; USA_WA1/2020; round 2, 5-point): 48.2%

calpain inhibitor III
inhibition (SARS-CoV-2; viral replication; USA-WA1/2020; 2.5 µM): 95.4%

CCN(CC)CCOCCOC(=O)C1(c2ccccc2)CCCC1
viral replication inhibition (SARS-CoV-2; concentration not given, Paris laboratory): inactive

Cc1cccc(C)c1OCC(=O)N[C@@H](Cc1ccccc1)[C@@H](O)C[C@H](Cc1ccccc1)NC(=O)[C@H](C(C)C)N1CCCNC1=O
IC50 (SARS-CoV-2; viral replication; Huh-7): > 2 µM

C=CCN1CC[C@@]2(C)c3cc(O)ccc3C[C@@H]1[C@@H]2C
IC50 (SARS-CoV-2; viral replication; Vero E6; inactive set pIC50 4): > 10 µM

heparin sodium
IC50 (SARS-CoV-2; viral replication; Huh-7): > 2 µM

Cn1cnc(Cn2c(=O)[nH]/c(=N\c3cc4cn(C)nc4cc3Cl)n(Cc3cc(F)c(F)cc3F)c2=O)n1
mean residence time (human, normal renal function; oral, 375 mg, single dose, geometric mean): 69 h

CC(C)[C@H](NC(=O)OCc1ccccc1)C(=O)N[C@H](C=O)Cc1ccccc1
inhibition (rep main protease; reporter gene (mKate2), inhibitor; 20 µM): 0.835%

CC[C@H](NC(=O)[C@H](CS(=O)(=O)CC1CC1)N[C@@H](c1ccc(F)cc1)C(F)(F)F)C(=O)C(=O)NC1CC1
EC90 (SARS-CoV-2; viral replication; 293T-ACE2, USA-WA1/2020): 0.407 µM

COc1ccc2cc1Oc1ccc(cc1)C[C@H]1c3cc(c(OC)cc3CCN1C)Oc1c(OC)c(OC)cc3c1[C@H](C2)N(C)CC3
EC50 (SARS-CoV-2; viral replication, high-content imaging screen; BetaCov/Belgium/GHB-03021/2020; cell-based): > 50.1 µM

COc1ccccc1-c1ccc(CN2CCCC(c3nc4ccc(C)cc4c(=O)[nH]3)C2)cc1 (centres unmarked)
AC50 (SARS-CoV-2; cytopathic effect, cell-based CPE; USA_WA1/2020; round 1, 5-point dilution): 11.2 µM

CC(C)(C)[C@H](NC(=O)C(F)(F)F)C(=O)N1C[C@H]2[C@@H]([C@H]1C(=O)N[C@H](C#N)C[C@@H]1CCNC1=O)C2(C)C
inhibition (SARS-CoV-2; viral replication; Vero E6; 0.3333 µM): 109%

Cc1nn(-c2ccc(Cl)cc2)c2c1C(c1ccc(F)cc1F)C(C#N)=C(N)O2 (centres unmarked)
viral reduction (SARS-CoV-2; viral replication; Vero; 10 µM): 4.78%

CNC(=O)[C@@H](NC(=O)[C@H](CC(C)C)[C@H](O)C(=O)NO)C(C)(C)C
survival (mouse; intravenous, 60 µg/mouse, 24 h, with: 2.5 LD50 Daboia russelii venom, preincubated): 0%

CCn1c2ccccc2c2cc(CN3CCN(Cc4cccc(Cl)c4)CC3)ccc21
maximum response (SARS-CoV-2; cytopathic effect; USA_WA1/2020; retest, 8-point, duplicates): 88.3%

CC(=O)[C@H]1CC[C@H]2[C@@H]3CCC4=CC(=O)CC[C@]4(C)[C@H]3CC[C@]12C
IC50 (SARS-CoV-2; viral replication; A549 expressing ACE2; inactive set pIC50 4): > 10 µM

CN1CCc2nc(C(=O)N[C@@H]3C[C@@H](C(=O)N(C)C)CC[C@@H]3NC(=O)C(=O)Nc3ccc(Cl)cn3)sc2C1.Cc1ccc(S(=O)(=O)O)cc1.O
inhibition (rep main protease; reporter gene (mKate2), inhibitor; 20 µM): -0.475%

CCN(CC)Cc1cc(Nc2ccnc3cc(Cl)ccc23)ccc1O
efficacy (SARS-CoV-2; cytopathic effect, cell-based CPE; USA_WA1/2020; round 2, 5-point dilution): 83.4%

Cc1ccc(NS(=O)(=O)c2cccc(C(=O)NC3CCN(c4ncnc5[nH]cnc45)CC3)c2)cc1
relative infection (SARS-CoV-2; A549-ACE2, Wuhan-Hu-1; 22.22 µM; reference: untreated): 44.4%

OC[C@H]1NC[C@H](O)[C@@H](O)[C@@H]1O
viral replication inhibition (SARS-CoV-2; concentration not given, Paris laboratory): inactive

CCN(CC)C(=O)C1(c2ccccc2)CC1CN (centres unmarked)
IC50 (SARS-CoV-2; viral replication, RT-qPCR; A549 expressing ACE2): > 10 µM

O=C1CCc2cc(OCCCCc3nnnn3C3CCCCC3)ccc2N1
IC50 (SARS-CoV-2; viral replication; Huh-7): > 2 µM

CCCCCCC(C)(C)c1cc(O)c2c(c1)OC(C)(C)[C@@H]1CC=C(C(=O)O)C[C@@H]21
EC50 (SARS-CoV-2; viral replication, GFP plate reader screen; cell-based): > 100 µM

Cc1cccc(/C=N/Nc2cc(N3CCOCC3)nc(OCCc3ccccn3)n2)c1
selectivity index (SARS-CoV-2; Vero C1008, USA-WA1/2020; reference: CC50 over EC50): 108

Oc1cc2c(cc1O)[C@H]1c3ccccc3CN[C@@H]1CC2 (racemic)
EC50 (SARS-CoV-2; viral replication, high-content imaging screen; cell-based): > 100 µM

COc1ccc(C[C@@H]2c3cc(Oc4cc(C[C@@H]5c6cc(O)c(OC)cc6CCN5C)ccc4O)c(OC)cc3CCN2C)cc1
CPE inhibition (SARS-CoV-2; viral replication; Vero E6; 0.7812 µM; reference: mean of replicates): 0%

Cc1ccccc1CN1C(=O)c2ccccc2Sc2ccc(C(=O)NCCCN3CCOCC3)cc21
efficacy (SARS-CoV-2; cytopathic effect; USA_WA1/2020; retest, 8-point, duplicates): 32.2%

COc1cc2c(cc1OC)C1CC(=O)C(CC(C)C)CN1CC2 (centres unmarked)
IC50 (SARS-CoV-2; viral replication; Huh-7): > 2 µM

CCCCN(CCCC)CCCNC(=O)c1ccc2nc(N3CCCCC3)sc2c1
efficacy (SARS-CoV-2; cytopathic effect; USA_WA1/2020; round 2, 5-point): 46.1%

O=C(/C=C/c1ccc(O)c(O)c1/C=C/c1ccc(O)c(O)c1)O[C@H](Cc1ccc(O)c(O)c1)C(=O)O
mean inhibition (SARS-CoV-2; cytopathic effect; Vero E6; 12.5 µM, replicate run): 0%

Cc1ccc2nc(C3CCCN(Cc4cccc(-c5cccnc5)c4)C3)[nH]c(=O)c2c1 (centres unmarked)
AC50 (SARS-CoV-2; cytopathic effect, cell-based CPE; USA_WA1/2020): 14.1 µM

CN(C)C(=O)Nc1cc(CNc2ccccc2C(=O)Nc2ccc3cn(C)nc3c2)ccn1
inhibition (SARS-CoV-2; viral replication; Vero C1008, USA-WA1/2020; 2.5 µM, reconfirmation): 40.6%

COC(=O)C1=C(C)NC(C)=C(C(=O)OC2CCCN(Cc3ccccc3)C2)C1c1cccc([N+](=O)[O-])c1 (centres unmarked)
EC50 (SARS-CoV-2; viral replication, high-content imaging screen; cell-based): > 100 µM

O=C(O[C@@H]1Cc2c(O)cc(O)cc2O[C@@H]1c1cc(O)c(O)c(O)c1)c1cc(O)c(O)c(O)c1
CPE inhibition (SARS-CoV-2; viral replication; Vero E6; 3.125 µM; reference: mean of replicates): 0%

C#C[C@]1(O)CC[C@H]2[C@@H]3CCC4=CCCC[C@@H]4[C@H]3CC[C@@]21C
EC50 (SARS-CoV-2; viral replication, high-content imaging screen; cell-based): > 50.1 µM

CC[C@H](C)[C@H](NC(=O)[C@H](CC(C)C)NC(=O)[C@H](Cc1c[nH]c2ccccc12)NC(=O)[C@H](CCC(N)=O)NC(=O)[C@@H](NC(=O)[C@H](Cc1ccccc1)NC(=O)[C@H](C)NC(=O)[C@H](CCCCNC(=O)COCCOCCNC(=O)COCCOCCNC(=O)CC[C@H](NC(=O)CCCCCCCCCCCCCCCCCCC(=O)O)C(=O)O)NC(=O)[C@H](CCC(N)=O)NC(=O)[C@H](C)NC(=O)[C@@H](NC(=O)[C@H](CCCCN)NC(=O)[C@H](CC(=O)O)NC(=O)[C@H](CC(C)C)NC(=O)C(C)(C)NC(=O)[C@@H](NC(=O)[C@H](CO)NC(=O)[C@H](Cc1ccc(O)cc1)NC(=O)[C@H](CC(=O)O)NC(=O)[C@H](CO)NC(=O)[C@@H](NC(=O)[C@H](Cc1ccccc1)NC(=O)[C@@H](NC(=O)CNC(=O)[C@H](CCC(=O)O)NC(=O)C(C)(C)NC(=O)[C@@H](N)Cc1ccc(O)cc1)[C@@H](C)O)[C@@H](C)O)[C@@H](C)CC)[C@@H](C)CC)C(C)C)C(=O)N[C@@H](C)C(=O)NCC(=O)NCC(=O)N1CCC[C@H]1C(=O)N[C@@H](CO)C(=O)N[C@@H](CO)C(=O)NCC(=O)N[C@@H](C)C(=O)N1CCC[C@H]1C(=O)N1CCC[C@H]1C(=O)N1CCC[C@H]1C(=O)N[C@@H](CO)C(N)=O
severe hypoglycaemia (healthy human; 1.0 mg, single ascending dose): 0%

Cc1cc(-c2ccc(/N=N/c3ccc4c(S(=O)(=O)O)cc(S(=O)(=O)O)c(N)c4c3O)c(C)c2)ccc1/N=N/c1ccc2c(S(=O)(=O)O)cc(S(=O)(=O)O)c(N)c2c1O
EC50 (SARS-CoV-2; viral replication, GFP plate reader screen; cell-based): > 100 µM

Cc1nn(-c2ccc(Cl)cc2)c2c1C(c1ccc(Cl)c(Cl)c1)C(C#N)=C(N)O2 (centres unmarked)
viral titre log reduction (SARS-CoV-2; Vero C1008; 10 µM; reference: positive control): 0.142 log10
